Measurements gathered from unrelated publications.
Every numbered part comes from another study and shows a few of its results, in no order. “And” joins repeats or separate records; there may be more than shown.
UniProt Q9UKI8, sequence (whole entry, looked up): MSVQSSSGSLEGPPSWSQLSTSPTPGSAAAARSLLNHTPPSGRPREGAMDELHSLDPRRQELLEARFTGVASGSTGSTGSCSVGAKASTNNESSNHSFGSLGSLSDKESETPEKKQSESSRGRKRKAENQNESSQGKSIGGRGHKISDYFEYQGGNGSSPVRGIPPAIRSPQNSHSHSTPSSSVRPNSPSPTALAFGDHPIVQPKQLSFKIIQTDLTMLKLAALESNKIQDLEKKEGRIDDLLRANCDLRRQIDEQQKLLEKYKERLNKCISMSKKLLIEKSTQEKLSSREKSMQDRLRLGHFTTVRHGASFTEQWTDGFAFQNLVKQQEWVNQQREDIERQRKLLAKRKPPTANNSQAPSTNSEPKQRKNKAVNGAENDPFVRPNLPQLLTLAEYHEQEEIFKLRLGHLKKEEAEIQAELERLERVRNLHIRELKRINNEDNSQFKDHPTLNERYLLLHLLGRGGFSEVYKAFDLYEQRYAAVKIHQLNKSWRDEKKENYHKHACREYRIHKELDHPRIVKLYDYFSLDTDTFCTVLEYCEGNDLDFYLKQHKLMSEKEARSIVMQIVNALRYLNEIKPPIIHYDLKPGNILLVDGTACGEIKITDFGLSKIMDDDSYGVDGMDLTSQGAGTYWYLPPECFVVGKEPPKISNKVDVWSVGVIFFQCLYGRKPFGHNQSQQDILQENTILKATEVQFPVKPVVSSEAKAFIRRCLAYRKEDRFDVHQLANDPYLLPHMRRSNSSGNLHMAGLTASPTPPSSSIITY
UniProt Q8N568, sequence (whole entry, looked up): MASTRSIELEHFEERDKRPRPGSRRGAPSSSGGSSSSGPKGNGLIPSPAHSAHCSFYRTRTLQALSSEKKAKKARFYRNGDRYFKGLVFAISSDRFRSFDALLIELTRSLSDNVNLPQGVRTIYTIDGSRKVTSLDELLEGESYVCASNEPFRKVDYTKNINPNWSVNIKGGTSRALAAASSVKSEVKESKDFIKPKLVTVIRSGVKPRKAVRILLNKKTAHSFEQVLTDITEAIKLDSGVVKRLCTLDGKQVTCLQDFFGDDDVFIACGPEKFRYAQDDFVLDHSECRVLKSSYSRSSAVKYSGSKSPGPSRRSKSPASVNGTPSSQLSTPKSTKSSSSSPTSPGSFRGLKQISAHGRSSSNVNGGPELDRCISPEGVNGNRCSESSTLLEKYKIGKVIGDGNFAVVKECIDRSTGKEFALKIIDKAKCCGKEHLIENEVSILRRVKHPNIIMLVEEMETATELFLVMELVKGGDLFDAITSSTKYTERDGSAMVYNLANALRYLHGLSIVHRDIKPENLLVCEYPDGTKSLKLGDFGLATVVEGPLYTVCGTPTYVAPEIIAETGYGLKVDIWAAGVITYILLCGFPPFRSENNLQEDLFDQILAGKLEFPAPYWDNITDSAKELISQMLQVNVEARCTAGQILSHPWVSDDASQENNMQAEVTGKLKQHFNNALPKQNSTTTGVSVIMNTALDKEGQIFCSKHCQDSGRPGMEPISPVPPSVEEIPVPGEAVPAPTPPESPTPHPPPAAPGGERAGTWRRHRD

Series 1
Target: Dual specificity tyrosine-phosphorylation-regulated kinase 1B (DYRK1B, Homo sapiens, UniProt Q9Y463)
Observed: enzyme activity
Mode: inhibitor
Technique: radiometric
Concentration: 0.5 µM
| Compound | remaining activity [%] |
| --- | --- |
| COc1cc2ncnc(Nc3ccc(F)c(Cl)c3)c2cc1OCCCN1CCOCC1 | 91.9 |
| Cc1cccc(-c2[nH]c(C(C)(C)C)nc2-c2ccc3c(c2)OCO3)n1 | 99.6 |
| O=c1c2ccccc2[nH]c(=S)n1CCN1CCC(=C(c2ccc(F)cc2)c2ccc(F)cc2)CC1 | 97.1 |
| COC(=O)[C@]1(O)C[C@@H]2O[C@@]1(C)n1c3ccccc3c3c4c(c5c6ccccc6n2c5c31)C(=O)NC4 | 3.88 |

Series 2
Target: HLA class I histocompatibility antigen, C alpha chain, allele C*04:01 (Homo sapiens, UniProt P10321)
Observed: peptide-MHC binding
Form: peptide
Concentration: concentration not given
| Molecule | binding |
| --- | --- |
| RFEAYGWQV | inactive |
| REAPYELNI | inactive |
| TTIPTNLFR | inactive |
| RQSSGSSSSGF | inactive |
| RQIRMTSTI | inactive |
| HEWKIPLLI | inactive |
| RMYWGVNPK | inactive |
| RARRHLAAL | inactive |

Series 3
Structure (SMILES): CC[C@@H](C)c1nc2cc(Nc3ccnc4ccc(S(=O)(=O)C(C)C)cc34)ccc2s1.Cl
| cell line | observed | technique | concentration | with | viability |
| --- | --- | --- | --- | --- | --- |
| L929 | – | CCK-8 | 1.563 µM | zVAD | 97.8% and 96.5% and 100% and 97.5% |
| L929 | – | CCK-8 | 50 µM | – | 34.7% and 34.2% and 46% and 34.8% and 34.1% |
| L929 RIPK3 knockout | – | – | 0.781 µM | zVAD | 101% and 99.1% and 105% and 102% |
| L929 RIPK3 knockout | – | – | 0.781 µM | – | 99% and 101% and 97.2% and 98.1% |
| L929 RIPK3 knockout | – | – | 50 µM | zVAD | 35.8% and 37.2% and 39.5% and 36.4% |
| L929 | – | CCK-8 | 100 µM | zVAD | 38% and 39% and 39.1% and 41.5% and 41.9% |
| HT-29 | necroptosis protection | CCK-8 | 0.625 µM | TNF-α SMAC mimetic zVAD | 37.8% and 29% and 19.4% and 19.1% and 25.1% |
| L929 | – | CCK-8 | 3.125 µM | zVAD | 105% and 101% and 107% and 103% |
| L929 | – | CCK-8 | 50 µM | zVAD | 43.1% and 34.5% and 35% and 33.9% |
| L929 RIPK3 knockout | – | – | 6.25 µM | – | 103% and 99.2% and 110% and 105% |
| L929 RIPK3 knockout | – | – | 6.25 µM | zVAD | 99.5% and 105% and 102% |
| HT-29 | necroptosis protection | CCK-8 | 0.156 µM | TNF-α SMAC mimetic zVAD | 23% and 21.2% and 21.7% and 20% and 12.7% |

Series 4
Structure (SMILES): Cn1cncc1[C@](O)(COc1ccc(C#N)cc1-c1ccc(OC(F)(F)F)cc1)c1ccc(C#N)cc1
Observed: cell-free assay
Technique: competition with immobilised ligand
Concentration: 1 µM
| target | remaining binding [%] |
| --- | --- |
| FLT3 (Homo sapiens, UniProt P36888, D835H) | 84 |
| TLK1 (Homo sapiens, UniProt Q9UKI8) | 100 |
| DCLK2 (Homo sapiens, UniProt Q8N568) | 98 |

Excerpt of the above (series 2):
| Molecule | binding |
| --- | --- |
| RFEAYGWQV | inactive |
| REAPYELNI | inactive |
| TTIPTNLFR | inactive |
